Measured values pooled from the literature.
Several values in a cell are separate wells, animals, samples, runs or records. Numbers after ± are the reported error.
Chain of UniProt Q9H3Y6 (whole entry, looked up): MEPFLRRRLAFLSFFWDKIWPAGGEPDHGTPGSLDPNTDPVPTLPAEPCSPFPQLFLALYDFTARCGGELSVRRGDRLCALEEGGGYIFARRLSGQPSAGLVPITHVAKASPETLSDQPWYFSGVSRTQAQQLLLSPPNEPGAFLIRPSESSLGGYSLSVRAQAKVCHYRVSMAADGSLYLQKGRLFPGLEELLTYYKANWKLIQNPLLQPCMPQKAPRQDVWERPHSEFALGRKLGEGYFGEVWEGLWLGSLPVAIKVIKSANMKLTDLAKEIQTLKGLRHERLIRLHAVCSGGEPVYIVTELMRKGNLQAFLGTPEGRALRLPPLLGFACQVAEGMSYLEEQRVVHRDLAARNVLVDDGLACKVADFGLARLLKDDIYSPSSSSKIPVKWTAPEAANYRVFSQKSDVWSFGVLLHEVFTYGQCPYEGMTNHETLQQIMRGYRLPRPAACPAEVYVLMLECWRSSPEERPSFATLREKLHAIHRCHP

COC1CN([C@H]2CC[C@H]([C@@]3(C)Oc4c(Cl)cc(C(=O)NCc5c(SC)cc(C)[nH]c5=O)c(C)c4O3)CC2)C1: “log2 fold change” 0.289 (RNA-seq, measured: GYG1 mouse homolog; mouse, HT-1376 xenograft, whole blood; dose not given; baseline: vehicle).
With CS(=O)(=O)c1ccc(-c2ccc([C@H]3[C@@H](F)[C@@H](F)C[C@@H](F)[C@H]3F)cc2)cn1 the hepatic clearance was 24 mL/min/kg (liver microsome stability; mouse liver microsomes; 1 µM).
For COc1cccc(OC)c1-c1cc(C(=O)NC2(C(=O)O)C3CC4CC(C3)CC2C4)nn1-c1ccc(C(=O)N(C)CCCN(C)CCCN(C)C(=O)[C@H](CCCCNC(=O)[C@H](CC(C)C)NC(=O)C2OC2C(=O)O)NC(=O)CN2CCN(CC(=O)[O-])CCN(CC(=O)[O-])CCN(CC(=O)[O-])CC2)cc1C(C)C.[177Lu+3] (mixture of isomers), the tumour-to-kidney ratio was 1.09 (mouse, HT-29 xenograft; 24 h post injection, biodistribution; baseline: tumour over kidney uptake).
With CCCC[C@H](NC(=O)COCCOCCNC(=O)CN1CCN(CC(=O)O)CCN(CC(=O)O)CC1)C(=O)N[C@H]1CC(=O)NCCCC[C@@H](C(N)=O)NC(=O)[C@H](Cc2c[nH]c3ccccc23)NC(=O)[C@H](CCCNC(=N)N)NC(=O)[C@@H](Cc2ccccc2)NC(=O)[C@H](Cc2c[nH]cn2)NC1=O [technetium-99m labelled] the tissue uptake was 0.02 ± 0.01 %ID/g (C57 mouse, heart; intravenous, 0.037 MBq, 4 h).
Nc1ncc(-c2ccc([C@H]3[C@@H](F)[C@@H](F)C[C@@H](F)[C@H]3F)cc2)cn1 has a hepatic clearance of 7.2 mL/min/kg (liver microsome stability; cynomolgus liver microsomes; 1 µM).
For CCN(CC)c1ccc2c(c1)O[B-]1(c3c(C)cccc3C)OC(=O)C(c3ccccc3)=N[N+]1=C2 (stereo not shown), the fluorescence lifetime was 0.45 ns (toluene).
Cc1ccc(OCC(=O)N(Cc2cccs2)c2ccn[nH]2)cc1 has a remaining compound of 67.3% (pooled dog liver microsomes; 10 µM, 10 min; baseline: time 0).
With [11CH3]N1CCC(NC(=O)c2cc(-c3c(O)cc(O)cc3Oc3ccc([N+](=O)[O-])cc3)on2)CC1 the tissue uptake was 2.7 ± 1 %ID (Wistar rat, female, healthy, urine; intravenous, 10 min).
CN1CCC[C@]1(C)/C=C/S(=O)(=O)NC(=O)Nc1c2c(cc3c1C(O)CC3)CCC2 (stereo partly shown) has an AUC(0-inf) of 316 µg·h/mL (human, plasma; oral, 50 mg twice daily of parent drug, day 14, metabolite of dosed drug).
C=CC(=O)Nc1cccc(Cn2ncc3cnc(Nc4cnn(CCOC)c4)nc32)c1: “percent of control” 100% (PRKG2 human; binding, KINOMEscan; 100 nM; lower = stronger binding).
O=C(Nc1ccc(C2CCCCC2)cc1)C1CC1 has a hepatic clearance of 81 mL/min/kg (hepatocyte stability; cryopreserved mouse hepatocytes; 1 µM).
COc1cc2c(cc1OC)[C@H]1C[C@@H](O)[C@H](CC(C)C)CN1CC2 has a Tlag of 0.33 h (measured: non-deuterated analyte; healthy human male, plasma; oral, 25 mg, median, [14C]-tetrabenazine dosed).
Cc1nc(N)nc2c1C(=O)N[C@@H](c1ccc(F)cc1-c1cccc(O[11CH3])n1)C2 has an SUV of 2.5 ± 0.2 (ex vivo biodistribution; mice, MDA-MB-231 subcutaneous xenograft, liver; 60 min post-injection, baseline, vehicle pre-treatment).
For CNC(=O)C1CCCN(C(=O)C2CC3CCC2N3C(=O)[C@@H]2C[C@@H](O)CN2C(=O)NCc2cccc(Cl)c2F)C1 (mixture of isomers), the remaining activity was 98% and 96.2% and 101% (Cytochrome P450 2C9 (CYP2C9, Homo sapiens, UniProt P11712); preincubation without NADPH; human; 5.56 µM; baseline: negative control).
With Nc1ncc(-c2cc(-c3cnn(CC(F)(F)F)c3)ncc2F)nc1C(=O)NC1CNCC(F)C1 (stereo not shown) the remaining binding was 72% (TSSK1B; KINOMEscan; 1 µM; baseline: DMSO control).
For Cc1cc(C)n(CCN(CCN)CCCCCCNC(=O)[C@@H](N)Cc2c[nH]c3ccccc23)n1.[99Tc+].[C-]#[O+].[C-]#[O+].[C-]#[O+], the excretion was 30.5 % injected activity (BALB/c nude mice A549 xenograft; intravenous, 4 h).
With O=C(CCC(F)(F)F)Nc1ccc(C2CCCCC2)cc1 the hepatic clearance was 17 mL/min/kg (liver microsome stability; human liver microsomes; 1 µM, without NADPH).
C=C1CC[C@H](OCCCNC(=O)CCOCCOCCOCCOCCOCCOCCOCCOCCOCCOCCOCCOCCOCCOCCOCCOCCOCCOCCOCCOCCOCCOCCOCCOCCOCCOCCOCCOCCOCCOCCOCCOCCOCCOCCOCCOCCNC(=O)CCN2C(=O)CC(SC[C@H](NC(=O)[C@H](Cc3ccccc3)NC(=O)[C@H](CC(N)=O)NC(=O)[C@H](Cc3c[nH]cn3)NC(=O)[C@@H](NC(=O)[C@H](CC(=O)O)NC(=O)[C@H](CCC(N)=O)NC(=O)[C@H](CC(C)C)NC(=O)[C@H](CCCCN)NC(=O)[C@H](CCCCN)NC(=O)[C@H](CCCNC(=N)N)NC(=O)[C@H](CC(C)C)NC(=O)[C@H](Cc3c[nH]c4ccccc34)NC(=O)[C@H](CCC(=O)O)NC(=O)[C@@H](NC(=O)[C@H](CCCNC(=N)N)NC(=O)[C@H](CCC(=O)O)NC(=O)[C@H](CCSC)NC(=O)[C@H](CO)NC(=O)[C@H](CC(N)=O)NC(=O)[C@H](CC(C)C)NC(=O)[C@H](Cc3c[nH]cn3)NC(=O)[C@H](CCCCN)NC(=O)CNC(=O)[C@H](CC(C)C)NC(=O)[C@H](CC(N)=O)NC(=O)[C@H](Cc3c[nH]cn3)NC(=O)[C@H](CCSC)NC(=O)[C@H](CC(C)C)NC(=O)[C@H](CCC(N)=O)NC(=O)[C@@H](NC(=O)[C@H](CCC(=O)O)NC(=O)[C@H](CO)NC(=O)[C@@H](NC(=O)[C@@H](N)CO)C(C)C)[C@@H](C)CC)C(C)C)C(C)C)C(=O)O)C2=O)C/C1=C/C=C1\CCC[C@]2(C)[C@@H]([C@H](C)CCCC(C)(C)O)CC[C@@H]12 (stereo partly shown) has a half-life of 7.36 h (male Sprague-Dawley rat, plasma; subcutaneous, 100 µg/kg, single dose).
CC(=O)Nc1ccc([C@H]2[C@@H](F)[C@@H](F)C[C@@H](F)[C@H]2F)cc1 has a hepatic clearance of 28 mL/min/kg (liver microsome stability; dog liver microsomes; 1 µM).
With C=CC(=O)N1[C@H](c2ccc3c(c2)OCO3)c2[nH]c3ccccc3c2C[C@@H]1C(=O)N1CCN(C)CC1 the relative co-enrichment was 130% (human cyclin E1 N112C-3xFLAG:CDK2; co-IP with TMT proteomics, measured: DDX5; concentration not given, P17844; baseline: wild type DMSO).
CC[C@H](C)[C@@H]1NC(=O)[C@H](Cc2ccc(O)cc2)NC(=O)CCCSC[C@@H](C(=O)N(CC(=O)N[C@@H](CC(C)C)C(=O)NCC(N)=O)Cc2ccc(F)cc2)NC(=O)[C@H](CC(N)=O)NC(=O)[C@H](CCC(N)=O)NC1=O — result for “AE leading to discontinuation”: 0% (human; intranasal, 200 µg single dose).
Under “volume of distribution (Vz)”, CCC(CC)n1c(Cc2cccs2)nc2cc(C(=O)N[C@@H](CC(=O)O)c3ccccc3)ccc21 is recorded as 9.59 ± 3.36 L/kg (Sprague-Dawley rat, male, plasma; ip, 10 mg/kg).
With [123I]c1ccc2nc(-c3ccc(-n4ccnn4)nc3)cn2c1 the tracer uptake was 0.035 %ID/g (male Wistar rat, heart; intravenous, 4 MBq, 3 h).
The IC50 of Cc1nn(-c2cccc(N)c2)c(=O)c2cnc(Nc3ccc(N4CCNCC4)cc3)nc12 is reported as 1830 nM (Tyrosine-protein kinase Srms (SRMS, Homo sapiens, UniProt Q9H3Y6); enzyme activity, inhibitor).
With C=C(NC(=O)c1csc(-c2nc3c(cc2O)-c2nc(cs2)C(=O)NC(C(C)O)C(=O)NC(=C(C)OC)c2nc(cs2)C(=O)NC2c4nc(cs4)C(=O)NC(COC(=O)c4c5c6c(cccc6n4O)COC(=O)C(OC4CC(C)(O)C(N(C)C)C(C)O4)C2OC5)c2nc-3cs2)n1)C(N)=O (stereo not shown) the AUC(0-t) was 2.02 µM·h (ICR mice, Streptococcus pneumoniae ATCC 49169 infected, immunocompromised, blood; intravenous, 32 mg/kg three times daily).

Repeated from above:
COC1CN([C@H]2CC[C@H]([C@@]3(C)Oc4c(Cl)cc(C(=O)NCc5c(SC)cc(C)[nH]c5=O)c(C)c4O3)CC2)C1: “log2 fold change” 0.289 (RNA-seq, measured: GYG1 mouse homolog; mouse, HT-1376 xenograft, whole blood; dose not given; baseline: vehicle).
With CS(=O)(=O)c1ccc(-c2ccc([C@H]3[C@@H](F)[C@@H](F)C[C@@H](F)[C@H]3F)cc2)cn1 the hepatic clearance was 24 mL/min/kg (liver microsome stability; mouse liver microsomes; 1 µM).
For COc1cccc(OC)c1-c1cc(C(=O)NC2(C(=O)O)C3CC4CC(C3)CC2C4)nn1-c1ccc(C(=O)N(C)CCCN(C)CCCN(C)C(=O)[C@H](CCCCNC(=O)[C@H](CC(C)C)NC(=O)C2OC2C(=O)O)NC(=O)CN2CCN(CC(=O)[O-])CCN(CC(=O)[O-])CCN(CC(=O)[O-])CC2)cc1C(C)C.[177Lu+3] (mixture of isomers), the tumour-to-kidney ratio was 1.09 (mouse, HT-29 xenograft; 24 h post injection, biodistribution; baseline: tumour over kidney uptake).
With CCCC[C@H](NC(=O)COCCOCCNC(=O)CN1CCN(CC(=O)O)CCN(CC(=O)O)CC1)C(=O)N[C@H]1CC(=O)NCCCC[C@@H](C(N)=O)NC(=O)[C@H](Cc2c[nH]c3ccccc23)NC(=O)[C@H](CCCNC(=N)N)NC(=O)[C@@H](Cc2ccccc2)NC(=O)[C@H](Cc2c[nH]cn2)NC1=O [technetium-99m labelled] the tissue uptake was 0.02 ± 0.01 %ID/g (C57 mouse, heart; intravenous, 0.037 MBq, 4 h).
